Assay results pooled from the literature.
Protocols differ between the studies behind these lines. Numbers after ± are the reported error.
Organism: Cryptosporidium parvum
Cell line: HCT-8

CCCc1nn(C)c2c(=O)[nH]c(-c3cc(S(=O)(=O)N4CCN(C)CC4)ccc3OCC)nc12 — EC50 (parasite growth, immunofluorescence microscopy; Iowa; 48 h post infection, compound added at 3 h): > 50000 nM
N#Cc1cccc2cc[nH]c12 — EC90 (parasite growth; 24 h, intracellular): 500 µM
CC(C)(NC(=O)c1cc2c(F)cc(F)cc2[nH]1)c1cn(C23CC4CC(CC(C4)C2)C3)nn1 — inhibition (parasite growth, imaging; 11 µM, 72 h, intracellular): ~30%
COC(=O)c1cc(Cl)ccc1N(C)C(=O)c1ccn2ncc(-c3ccc(C(N)=O)cc3)c2c1 — EC50 (cytopathic effect; 48 h): 39 ± 8 nM
O=C(Cc1ccc(Cl)cc1)N1CCN(c2ccc3nncn3n2)CC1 — EC50 (high-content microscopy): 880 nM
CCN1CCN(C(=O)c2ccc(-n3nc(-c4cccnc4)c4c3-c3sc(NC(C)=O)nc3CC4)cc2)CC1 — EC50 (parasite growth, immunofluorescence microscopy; Iowa; 48 h post infection, compound added at 3 h): 20 nM
CC(C)=CCC/C(C)=C\COC(=O)NC(=O)C12CC3CC(CC(C3)C1)C2 — lowest effective concentration (parasite proliferation, immunofluorescence; reference: infected untreated): 15 µM
CCOC(=O)CN(C(=O)c1ccn2ncc(-c3ccc(C(=O)NC)cc3)c2c1)c1ccc(Cl)cc1 — EC50 (cytopathic effect; 48 h): 71 ± 16 nM
O=C(Cc1ccc(F)cc1)N1CCN(c2ccc3nncn3n2)CC1 — EC50 (high-content microscopy): 1200 nM
CNC(=O)c1ccc(-c2cnn3ccc(C(=O)N(CC(=O)O)c4ccc(Cl)cc4)cc23)cc1 — EC50 (cytopathic effect; 48 h): > 20000 nM
C#CC(C)(C)NC(=O)c1cc2c(Cl)cc(Cl)cc2[nH]1 — inhibition (parasite growth, imaging; 11 µM, 72 h, intracellular): > 60%

For quick reference, copied from above:
CCCc1nn(C)c2c(=O)[nH]c(-c3cc(S(=O)(=O)N4CCN(C)CC4)ccc3OCC)nc12 — EC50 (parasite growth, immunofluorescence microscopy; Iowa; 48 h post infection, compound added at 3 h): > 50000 nM
